{"data": "Experimental data pooled from the literature", "note": "Values joined by “and” are separate records of one study, mostly repeats; a detail may differ. ± marks the error that the study gave."}
{"Structure (SMILES)": "CN(Cc1ccc(/C=C/C(=O)NO)cc1)CC12CC3CC(CC(C3)C1)C2", "target": "HDAC, rat", "assay": "PET-CT self-blocking", "system": "rat, brain", "conditions": "0-2.0 mg/kg, [11C] tracer, 6 min normalised uptake", "measurement": "change in whole-brain uptake", "result": "10 to 40%"}
{"Structure (SMILES)": "O=C(N/N=C/c1cc[n+](CC2CC2)c2ccccc12)C(=O)N/N=C/c1cc[n+](CC2CC2)c2ccccc12", "target": "telomeric G4 DNA hybrid-2", "assay": "FRET melting", "conditions": "1 µM, DNA 0.2 µM", "measurement": "ΔTm", "result": "4.1 ± 0.9 °C"}
{"Structure (SMILES)": "CC(=O)NCCCN(C)CCCNc1cccc2c1C(=O)c1cccc(NCCCN(C)CCCNC(C)=O)c1C2=O", "target": "c-myc G-quadruplex DNA", "assay": "DNA thermal stabilisation, CD melting", "conditions": "4.5 µM, pH 7.4, with: 1.5 µM DNA, 5 mM KCl", "measurement": "ΔTm", "result": "9.2 °C"}
{"Structure (SMILES)": "O=C(O)C(Cc1c[nH]cn1)N1C(=O)c2ccc3c4ccc5c6c(ccc(c7ccc(c2c37)C1=O)c64)C(=O)N(CCN1CCCCC1)C5=O (centres unmarked)", "target": "telomerase", "assay": "telomerase activity, inhibitor, TRAP", "system": "LNCaP", "conditions": "48 h", "measurement": "IC50", "result": "8100 ± 400 nM"}
{"Structure (SMILES)": "Fc1ccc(Nc2nc(NC3CCCCC3)c3ccccc3n2)cc1F", "target": "β2AR/β1AR TM6 chimera", "assay": "β-arrestin2 recruitment, antagonist, BRET", "conditions": "with: isoprenaline 1 µM", "measurement": "pIC50", "result": 5.9}
{"Structure (SMILES)": "CC(C)(C#N)c1ccc2c(c1)N(C(=O)c1ccc([C@@](C)(O)C(F)(F)F)cc1)Cc1cccnc1N2", "target": "IDH1 R132H", "assay": "2-HG production, RapidFire MS", "system": "MOG-G-UVW overexpressing IDH1 R132H", "measurement": "IC50", "result": "213 nM and 281 nM and 202 nM and 216 nM and 168 nM and 208 nM and 157 nM"}
{"Structure (SMILES)": "CNC(=O)C1CCN(c2cc(C)c(F)cc2NC(=O)c2ccc(-c3cc(O)ccc3C)c(C)c2)CC1", "target": "FLT3 ITD D835V (human)", "assay": "binding, KINOMEscan", "conditions": "1000 nM", "measurement": "percent of control", "result": "84%"}
{"Structure (SMILES)": "O=C(N/N=C/c1cc[n+](Cc2ccccc2)c2ccccc12)c1ccc2ccc(C(=O)N/N=C/c3cc[n+](Cc4ccccc4)c4ccccc34)nc2n1", "target": "telomeric G4 DNA hybrid-2", "assay": "FRET melting", "conditions": "1 µM, DNA 0.2 µM, with: duplex DNA competitor 10 µM", "measurement": "ΔTm", "result": "21.2 ± 1 °C"}
{"Structure (SMILES)": "C=CC(=O)N1[C@H](c2ccc3c(c2)OCO3)c2[nH]c3ccccc3c2C[C@@H]1C(=O)N1CCN(C)CC1", "target": "human cyclin E1 N112C-3xFLAG:CDK2", "assay": "co-IP with TMT proteomics, item: RPS14", "conditions": "concentration not given, P62263", "how to read": "relative to: wild type DMSO", "measurement": "relative co-enrichment", "result": "95%"}
{"Structure (SMILES)": "OB1c2sccc2C=NN1Cc1ccccc1", "target": "human pancreatic chymotrypsin", "assay": "enzyme activity, inhibitor", "measurement": "IC50", "result": "> 100000 nM"}
{"Structure (SMILES)": "N#Cc1ccc(-c2cnc(C(=O)CCCCCCc3ccccc3)o2)nc1", "target": "serine hydrolases (mouse)", "assay": "competitive ABPP", "system": "mouse brain membrane proteome", "measurement": "off-target inhibition concentration", "result": "100 µM"}
{"Structure (SMILES)": "Nc1ncc(-c2cc(-c3cnn(CC(F)(F)F)c3)ncc2F)nc1C(=O)NC1CNCC(F)C1 (centres unmarked)", "target": "IRAK1", "assay": "KINOMEscan", "conditions": "1 µM", "how to read": "relative to: DMSO control", "measurement": "remaining binding", "result": "100%"}
{"Structure (SMILES)": "C=CC(=O)Nc1cccc(Cn2ncc3cnc(Nc4cnn(CCOC)c4)nc32)c1", "target": "EPHA2 human", "assay": "binding, KINOMEscan", "conditions": "100 nM", "how to read": "lower = stronger binding", "measurement": "percent of control", "result": "90%"}
{"Structure (SMILES)": "Fc1ccc(Nc2nc(NC3CCCCC3)c3cc(C(F)(F)F)ccc3n2)cc1F", "target": "β2AR/β1AR TM6 chimera", "assay": "β-arrestin2 recruitment, antagonist, BRET", "how to read": "relative to: isoprenaline maximal response", "measurement": "maximal inhibition", "result": "-1.9%"}
{"Structure (SMILES)": "CN(C)CCOc1cc(NC(=O)c2cccc(C(=O)Nc3cc(OCCN(C)C)c4ccccc4n3)n2)nc2ccccc12", "target": "K-ras G-quadruplex DNA", "assay": "FRET melting", "conditions": "1 µM, pH 7.4, with: 60 mM potassium", "measurement": "ΔTm", "result": "9.9 ± 0.4 K"}
{"Structure (SMILES)": "C[n+]1ccc(/C=N/NC(=O)c2ccc3ccc4ccc(C(=O)N/N=C/c5cc[n+](C)c6ccccc56)nc4c3n2)c2ccccc21", "target": "telomeric G4 DNA hybrid-2", "assay": "FRET melting", "conditions": "1 µM, DNA 0.2 µM, with: duplex DNA competitor 10 µM", "measurement": "ΔTm", "result": "29.8 ± 0.8 °C"}
{"Structure (SMILES)": "OB(O)c1sccc1/C=N/OCc1ccccc1", "target": "human pancreatic chymotrypsin", "assay": "enzyme activity, inhibitor", "measurement": "IC50", "result": "> 100000 nM"}
{"Structure (SMILES)": "NCCOc1cc(NC(=O)c2cc(OCc3cn(Cc4ccc(C(=O)O)cc4)nn3)cc(C(=O)Nc3cc(OCCN)c4ccccc4n3)n2)nc2ccccc12", "target": "c-myc G-quadruplex DNA", "assay": "FRET melting", "conditions": "1 µM, pH 7.4, with: 60 mM potassium", "measurement": "ΔTm", "result": "5.3 ± 0.5 K"}
{"Structure (SMILES)": "O=C1c2ccc3c4ccc5c6c(ccc(c7ccc(c2c37)C(=O)N1CCN1CCCCC1)c64)C(=O)N(CCN1CCCCC1)C5=O", "target": "telomerase", "assay": "telomerase activity, inhibitor, TRAP", "system": "PC-3", "conditions": "48 h", "measurement": "IC50", "result": "11300 ± 200 nM"}
{"Structure (SMILES)": "C[n+]1ccc(/C=N/NC(=O)c2cccc(C(=O)N/N=C/c3cc[n+](C)cc3)c2)cc1", "target": "telomeric G4 DNA hybrid-2", "assay": "FRET melting", "conditions": "1 µM, DNA 0.2 µM, with: duplex DNA competitor 10 µM", "measurement": "ΔTm", "result": "2.3 ± 0.3 °C"}
{"Structure (SMILES)": "NCCCn1cc(COc2cc(C(=O)Nc3cc(OCCN)c4ccccc4n3)nc(C(=O)Nc3cc(OCCN)c4ccccc4n3)c2)nn1", "target": "K-ras G-quadruplex DNA", "assay": "FRET melting", "conditions": "1 µM, pH 7.4, with: 60 mM potassium", "measurement": "ΔTm", "result": "5.8 ± 0.3 K"}
{"Structure (SMILES)": "O=C(N/N=C/c1ccc(C[n+]2ccccc2)cc1)c1cccc(C(=O)N/N=C/c2ccc(C[n+]3ccccc3)cc2)c1", "target": "telomeric G4 DNA hybrid-2", "assay": "FRET melting", "conditions": "1 µM, DNA 0.2 µM, with: duplex DNA competitor 10 µM", "measurement": "ΔTm", "result": "3.7 ± 0.6 °C"}
{"Structure (SMILES)": "NCCOc1cc(NC(=O)c2cc(OCc3cn([C@H]4O[C@@H](CO)[C@H](O)[C@@H](O)[C@@H]4O)nn3)cc(C(=O)Nc3cc(OCCN)c4ccccc4n3)n2)nc2ccccc12", "target": "c-myc G-quadruplex DNA", "assay": "FRET melting", "conditions": "1 µM, pH 7.4, with: 60 mM potassium", "measurement": "ΔTm", "result": "11.1 ± 0.4 K"}
{"Structure (SMILES)": "O=C(N/N=C/c1cc[n+](Cc2ccccc2)c2ccccc12)c1cc(C(=O)N/N=C/c2cc[n+](Cc3ccccc3)c3ccccc23)ncn1", "target": "telomeric G4 DNA hybrid-2", "assay": "FRET melting", "conditions": "1 µM, DNA 0.2 µM, with: duplex DNA competitor 10 µM", "measurement": "ΔTm", "result": "15.3 ± 0.1 °C"}
{"Structure (SMILES)": "c1ccc(-c2n[nH]cc2-c2ccnc3ccccc23)nc1", "target": "orf19.4144 Candida albicans", "assay": "kinase binding, MIB/MS competition", "system": "Candida albicans lysate", "conditions": "1 µM", "how to read": "relative to: DMSO", "measurement": "log2 fold change", "result": -0.06}
{"Structure (SMILES)": "C[n+]1cccc2cc(/C=N/NC(=O)c3ccc4ccc(C(=O)N/N=C/c5ccc6c(ccc[n+]6C)c5)nc4n3)ccc21", "target": "telomeric G4 DNA hybrid-2", "assay": "FRET melting", "conditions": "1 µM, DNA 0.2 µM, with: duplex DNA competitor 10 µM", "measurement": "ΔTm", "result": "16.3 ± 1.9 °C"}
{"Structure (SMILES)": "C=Cc1c(C)c2cc3nc(c(CC(=O)[O-])c4[n-]c(cc5nc(cc1[n-]2)C(C)=C5CC)c(C)c4C(=O)[O-])C(CCC(=O)[O-])C3C.[Cu+2].[Na+].[Na+].[Na+] (centres unmarked)", "target": "Nrf2 (mouse)", "assay": "immunofluorescence", "system": "RAW264.7", "conditions": "10 µM, 2 h", "how to read": "relative to: untreated", "measurement": "phospho-Nrf2 level", "result": "increased"}
{"Structure (SMILES)": "C[n+]1cc(/C=N/NC(=O)c2cccc(C(=O)N/N=C/c3cc4ccccc4[n+](C)c3)c2)cc2ccccc21", "target": "telomeric G4 DNA hybrid-2", "assay": "FRET melting", "conditions": "1 µM, DNA 0.2 µM, with: duplex DNA competitor 10 µM", "measurement": "ΔTm", "result": "13.3 ± 0.7 °C"}
{"Structure (SMILES)": "O=S(=O)(NCc1ccncc1)c1ccc(C2CCCCC2)cc1", "target": "PU.1, mouse", "assay": "reporter gene, inhibitor, luminescence", "system": "BV-2 PU.1 luciferase reporter", "conditions": "Mcule batch", "measurement": "EC50", "result": "10 nM"}
{"note": "Repeated from above:"}
{"Structure (SMILES)": "C=CC(=O)Nc1cccc(Cn2ncc3cnc(Nc4cnn(CCOC)c4)nc32)c1", "target": "EPHA2 human", "assay": "binding, KINOMEscan", "conditions": "100 nM", "how to read": "lower = stronger binding", "measurement": "percent of control", "result": "90%"}
{"Structure (SMILES)": "Fc1ccc(Nc2nc(NC3CCCCC3)c3cc(C(F)(F)F)ccc3n2)cc1F", "target": "β2AR/β1AR TM6 chimera", "assay": "β-arrestin2 recruitment, antagonist, BRET", "how to read": "relative to: isoprenaline maximal response", "measurement": "maximal inhibition", "result": "-1.9%"}
{"Structure (SMILES)": "CN(C)CCOc1cc(NC(=O)c2cccc(C(=O)Nc3cc(OCCN(C)C)c4ccccc4n3)n2)nc2ccccc12", "target": "K-ras G-quadruplex DNA", "assay": "FRET melting", "conditions": "1 µM, pH 7.4, with: 60 mM potassium", "measurement": "ΔTm", "result": "9.9 ± 0.4 K"}
